Results from different studies.
Numbered parts are unrelated; each lists some results of a single study.

Block 1
Target: Interferon regulatory factor 7, full length, phosphomimetic (IRF7, Homo sapiens, UniProt Q92985, residues 1-503, S471D/S472D/S475D/S476D/S477D/S483D/S484D/S487D)
Technique: protein-binding microarray
Molecule type: double-stranded DNA, one strand shown
Matrix: in vitro
Tested at: 2200 nM top
Setting: 60-bp whole probe
With: salmon DNA 0.4 mg/ml
Reference: random background probes
Reading: higher = stronger binding
Shared flanks, not repeated: GCCTAGCAC … GTCTTGATTCGCTTGACGCTGCTG
Construct (chain): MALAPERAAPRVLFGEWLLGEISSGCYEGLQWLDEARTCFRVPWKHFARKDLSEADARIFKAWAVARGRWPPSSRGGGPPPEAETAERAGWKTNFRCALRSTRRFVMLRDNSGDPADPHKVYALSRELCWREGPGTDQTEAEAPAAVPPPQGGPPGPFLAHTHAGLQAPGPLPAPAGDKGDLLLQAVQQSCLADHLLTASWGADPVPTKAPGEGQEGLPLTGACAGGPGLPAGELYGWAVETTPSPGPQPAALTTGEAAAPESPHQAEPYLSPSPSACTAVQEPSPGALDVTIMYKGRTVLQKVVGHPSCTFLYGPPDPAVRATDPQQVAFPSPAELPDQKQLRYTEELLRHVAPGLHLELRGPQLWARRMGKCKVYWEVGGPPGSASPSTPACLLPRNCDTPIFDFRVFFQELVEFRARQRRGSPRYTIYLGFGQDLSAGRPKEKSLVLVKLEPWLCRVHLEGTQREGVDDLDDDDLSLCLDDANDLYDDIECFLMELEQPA
Strand | fitted relative affinity
TTTGAACTGAGTATCGATTAGTGCTAG | -0.0211 z-score
TTAGGTTTCCTTATCCTTCAGTGCTAG | 2.43 z-score
TGAGGACTGCTTCTCCTTTAGTGCTAG | 0.521 z-score
GACGGTTTCGGATTGGGGACGTGCTAG | 9.73 z-score
TTAGATTTCATTATCGATTAGTGCTAG | 1.09 z-score
TTAGGATTCGGTTTCGGTTAGTGCTAG | 9.38 z-score
GACGGTCTCGACTTTCGGGACGTGCTA | 2.74 z-score
TTAGGTTTCCTACTGCGTTAGTGCTAG | 1.01 z-score
TTAGGTATCGGTTTTCGGTTAGTGCTA | 5.24 z-score
GACGGTTTGGGTCTCGGGACGTGCTAG | 0.462 z-score
TCAGATCTCCGAGATGCCACTGTGCTA | 0.51 z-score
GACGGTTTCGGTCTCGAGACGTGCTAG | 6.16 z-score
TCACTGCTACCCTCTGAAACTGTGCTA | 1.07 z-score
TCAACTTTCTACGTCTGACTGTGCTAG | 2.13 z-score
AAAAAAAATGGAAATCTACCCGTGCTA | -1.66 z-score
AACCGCACAGAACTAAAACAGTGCTAG | -0.153 z-score
GACGGACTGGACTATGGGGACGTGCTA | -0.839 z-score
GACGAATTGGGGACTGGAGACGTGCTA | -0.19 z-score
TTAGGTTTCGGGTATCGATTAGTGCTA | 5.97 z-score
TTAGAACTGAGTCTCGAATAGTGCTAG | -0.414 z-score
CACTCTCTACATGTGTTTACGTGCTAG | 2.02 z-score

Block 2
Target: RNA binding protein fox-1 homolog 2, RRM domain, GST-SBP tag (RBFOX2, Homo sapiens, UniProt O43251-10, residues 100-194)
Technique: RNA Bind-n-Seq
Molecule type: RNA
Matrix: in vitro
Tested at: 365 nM
Setting: natural RNA segment, single round, ends assumed
Reference: no-protein control
Reading: higher = stronger binding
Shared flanks, not repeated: GGGAGUUCUACAGUCCGACGAUC … UGGAAUUCUCGGGUGCCAA
Target sequence (chain): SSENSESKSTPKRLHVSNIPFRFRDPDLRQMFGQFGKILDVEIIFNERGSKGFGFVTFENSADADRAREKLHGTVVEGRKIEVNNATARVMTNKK
Strand | RBNS enrichment (R)
UCAUUUUAGAAGUAGACAGAAAAAAAUAUCUAAGCUCAGGUAAUACUGAAAAAGCCAAAAUGUUUUGUUUCGUUUCUUUUUUUUUUUUUUUUUUAAAGAUAAACUUGUGU | 1.06
CUGUGGGUGGGGAUGAGUUGCUUGACUCAUGUUUAGACGCAUGGUUCUGUCUGGUGAUUGAGGUGCCCAGGCGACGCUGGGCAAUGUCAAGAGAGGUUUUGGCUUGUCAC | 0.45
UUUCACUUUUUCCCAGCUGCGUCCACAGGAAAGGGGAGUCGGAUGCCAGCUGCACCCCGCCUGGCUCGCACAGGCUAAGACCACAGACAGAGCAGGGCUUCCCGGAGCCA | 0.655
CUUGACCCUGCUCAACCUUCUCCCUCUAGCACAAGGGAACAUUUCUAGAAAAGUAAAAUCUACUUUUGUAUCAGUGUGAAUAAAGUUAGUGUGUUGUCUGUGCAGCUGCA | 0.485
UAUAAGUUUCUUAAGGAAUUGUCCUGCUGACCUGUAUCUAACUAAUGAACUUAAGGGUCUGGGUUUUUUUUUCUUUUGUUUGUUUGUUCAUUUUGUUCAUUUGUUUGUUU | 9.55
CUGGCUGGGCUGGCUGAAGAAUGAAGACCACUGGACUCUCCGUUAAUCUCUAAGGGGUCUGCUCCCCAGGAACGUUUCUGAACAAUGGGGACUUUGUUGGUAGCCAUUUG | 1.1
AAUUCCUUUGGCAUUUGGGGUUUUGUUUUUCCUUUUUUCCUUCUUCAUCCUCCUCCUUUUUUAAAAGUCAACGAGAGCCUUCGCUGACUCCACCGAAGAGGUGCGCCACU | 0.495
UGCCCUUGCUCUGUUUCUGCUCCUCACCGGCUGUCAUUACAUGCUACACUGAGGCUUUAAAAACACAAGGUCCCCCAAGGCUUCCUAGAAAUUGAAAUCUUUGCCUAGGC | 0.245
UGGUCUGCACAUGAUACUCAGCCUAAAGACCAUGGAUCGCUUUGAUGACCACAAGGGCCCCACCAUCACUUUGACCCAGAUUGUGUGACAUACACCUGAGAGGAAUUGAG | 1.19
GUGGAGCGGAAAAGCAGGUUGGUAAAGUUCCCUUCUUGGGACUUAUUCCUGGAGUCAGUGGAUACAAGUAGUGCAGAAGGUUCACACUGCAAAUAGUGUUCUCAUCUCAA | 0.555
UAGAGUGCAGAGGGGCUCUUUUAUCCAGACCCCUCUUUGUAUCCUGGUGCCCUUGUUGACUGUCUGGGAAGAUGAAUAUACCAGGGUUUCCAAAUCCAGCCCUUUUCGUU | 0.275
AGGGAAUGUGCAGGAACAGAGGCGUCUUCCUGGGUUUGGCUCCCCGUUCCUCACUUUUCCCUUUUCAUUCCCACCCCCUAGACUUUGAUUUUACGGAUAUCUUGCUUCUG | 0.355

Block 3
Target: RING finger protein unkempt homolog, zinc fingers 1-6, GST-SBP tag (UNK, Homo sapiens, UniProt Q9C0B0, residues 30-357)
Technique: RNA Bind-n-Seq
Molecule type: RNA
Matrix: in vitro
Tested at: not given
Setting: RNA with constant flanks, ends assumed
Reference: input RNA pool
Reading: higher = stronger binding
Shared flanks, not repeated: GGGAGUUCUACAGUCCGACGAUC … CAACAGAGGAUUGAGCAUCA
Target sequence (chain): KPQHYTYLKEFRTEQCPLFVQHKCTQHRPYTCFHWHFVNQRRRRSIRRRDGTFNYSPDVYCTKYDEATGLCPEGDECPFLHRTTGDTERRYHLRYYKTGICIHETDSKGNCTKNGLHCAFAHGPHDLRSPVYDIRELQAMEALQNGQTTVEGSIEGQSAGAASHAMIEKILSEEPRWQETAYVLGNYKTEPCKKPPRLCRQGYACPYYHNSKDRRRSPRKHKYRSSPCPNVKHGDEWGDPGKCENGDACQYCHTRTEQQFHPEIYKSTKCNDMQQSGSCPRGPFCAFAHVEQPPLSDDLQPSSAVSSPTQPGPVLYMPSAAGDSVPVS
Strand | bound/input enrichment
GAGGAUGCUCCUGGGACUUCGGAGCAGAGCUGCUGUGCUCGGGAAGACGGCAUUGAUGCUGCCGAGGUGGCAGCCGACCGACCUGGCAGUCCUCGGAGCUCGGCCUCUGGUACACACUCU | 0.0638 ratio
GGAGAGGCCCAGGCAGCGGCGGCGGCGGCGGCUCUCGGGUUGCGGUGAAGAAUGUCAGCCACCCGCGUGGAUCAGAGACCUAAAGGGCAAGGAAAUAAAGUUUCAGUACAAAACGGUUCG | 0.183 ratio
UCAGGGUGGAAGUCCAUGAUUCAGUCUCACCCUCAUUUAGUAGCAGAAGCCUUUCGAGCACCCGCAUCUGCACAGUGUCCACAGUUUGGCAUUCCACGCAAACGGCUAAAACAGUCCUGA | 0.137 ratio
UAACUUAUUUUUCAUCAGAGUAUGACUGAAACAUGCUUCUACCAAAUACAAUAUAAAGAAUCCGGCCGUCCUAAUGCCUUUCCUAUAUUAUUUUUUUUUCCUUUUCCACACAAGACAACA | 1.83 ratio
AAUACUUGGCAGUUCAAUUUCAAAUUUAACCUUACAGAGGACAUGUACUCCCAGGAUUCCACCGAUCUCCUUGCUAACUCAGGACUACAGUUUCAGAAGCAUGAAGAGGAAGGGAUUGAC | 0.389 ratio
UAACUCUAAAAGGGAGGUGCUUGGGAUUAAGGUGACAGUCCACUUGAUCCUUUUCUUUGUUUCCGUGUGAAUUUCAGCAGCUCCAUCUGUCUUCAUGAUUGUACUUGAGCAGUAUUAGCU | 0.201 ratio
AAUAUACAUGGAACUUUGGUCUUUGGAACAAGUAGUAGUUUGUCUGGCAUAAUGGCAAACUCCGUUUUCCGAAACAGUUUCAAGGUUAAAUAUGAAGCUUUGAAGACCUAUGCAUCCCUG | 0.0975 ratio

Block 4
Target: Prothrombin, mature alpha-thrombin (F2, Homo sapiens, UniProt P00734)
Technique: aptamer microarray, sandwich
Molecule type: DNA with 2'F-ANA
Matrix: in vitro
Tested at: 200 nM
Setting: whole 15-mer aptamer, many near background
With: Cy3 exosite-II aptamer, 400 nM
Reading: higher = stronger binding
Strand: GGTTGGTGTGGTTGG
Modification | mean fluorescence intensity [a.u.]
2'F-ANA at 1 3 4 7 10 12 13 15 | 70.3
2'F-ANA at 1 2 6 7 8 9 12 14 | 69
2'F-ANA at 5 7 8 10 11 12 | 50.9
2'F-ANA at 1 4 7 9 10 12 13 15 | 53.2
2'F-ANA at 1 2 3 5 8 9 10 12 13 15 | 49.4
2'F-ANA at 6 12 13 14 15 | 187
2'F-ANA at 4 6 7 9 10 | 90
2'F-ANA at 3 4 7 8 9 10 13 14 15 | 221
2'F-ANA at 1 2 3 8 13 15 | 213
2'F-ANA at 5 6 7 12 13 15 | 107
2'F-ANA at 1 3 4 7 8 13 14 15 | 79.9
2'F-ANA at 1 4 5 12 14 | 53.4
2'F-ANA at 3 4 5 7 10 12 13 14 | 55.2
2'F-ANA at 1 2 4 5 7 8 9 10 12 15 | 49.4
2'F-ANA at 1 3 5 8 11 12 | 126
2'F-ANA at 2 3 5 6 7 8 9 13 14 | 51.6
2'F-ANA at 3 5 9 | 138
2'F-ANA at 4 6 9 10 11 13 15 | 88.6
2'F-ANA at 4 8 11 15 | 260
2'F-ANA at 1 2 6 9 14 15 | 54.7

For quick reference, copied from above (block 4):
Modification | mean fluorescence intensity [a.u.]
2'F-ANA at 1 2 3 8 13 15 | 213
2'F-ANA at 5 6 7 12 13 15 | 107
2'F-ANA at 1 3 4 7 8 13 14 15 | 79.9
2'F-ANA at 1 4 5 12 14 | 53.4
2'F-ANA at 3 4 5 7 10 12 13 14 | 55.2
2'F-ANA at 1 2 4 5 7 8 9 10 12 15 | 49.4
2'F-ANA at 1 3 5 8 11 12 | 126
